Assay results collected from several papers.
Parts stem from different laboratories: compare values within a part only. Changes are numbered by the printed parent chain.

Block 1
Target: RNA binding protein fox-1 homolog 2, RRM domain, GST-SBP tag (RBFOX2, Homo sapiens, UniProt O43251-10, residues 100-194)
Method: RNA Bind-n-Seq
Molecule type: RNA
Medium: in vitro
Concentration: 365 nM
Setting: natural RNA segment, single round, ends assumed
Reference: no-protein control
Reading: higher = stronger binding
Construct (chain): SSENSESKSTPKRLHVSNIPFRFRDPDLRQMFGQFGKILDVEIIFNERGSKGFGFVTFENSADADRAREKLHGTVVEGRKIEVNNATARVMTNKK
Oligonucleotide	RBNS enrichment (R)
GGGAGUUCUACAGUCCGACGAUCAAGUGACUGGGUGUGCCAAAAAUGCCCAGGGUUCUGCCCUCAAUACUAUAUUUGAUGGGGCCAAGAGGGUCCAAACCCUGCUAACAUACCACUUUAUUCAACUCCUUUACUGGAAUUCUCGGGUGCCAA	0.423
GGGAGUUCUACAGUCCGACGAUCUUAACAGCUGAGCCUUGGACCCCACUGCCUCUGAGUCUACAUUCUGGCAGGCAGUCCCAUGCUCUGGGCCUUACCUCUAGUCCCCUGCCUGCUCACACCUGGUCCCCUAGUGGAAUUCUCGGGUGCCAA	0.285
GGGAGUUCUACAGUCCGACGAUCGUGGGAGGAGCAUCAAGGGGCCUGUCUCUAGGAGCUGUGUGGUUCUGGGCAGUGGUCUGUUCACCCUGAGUCCCACCCUUUGUUAAAUAACAAACUGCUGAUUCUUAAAAUGGAAUUCUCGGGUGCCAA	1.05
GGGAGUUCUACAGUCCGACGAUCAAGACAAAUUGAUCAGUGCUUCCCACUCCAAGUCAAGCUUUAUGCAGGAAUGCUUUUCCAUCAGGGAAUAAAUACUUAGAAGCGCUUACAAGGUGCCAGGCACCUCCUUUUGGAAUUCUCGGGUGCCAA	1.03
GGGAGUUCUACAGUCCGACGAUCAGCCACUUAGUGCUUUGUCCUGGACUCCGCUCAGCCUGAGGCUGGGGAAUAGAAAGGGCAGACCCCAAGAGUUGGAGAUUAGAGGUCCCCUCCAGAUAGCAAGAGGUUUCUGGAAUUCUCGGGUGCCAA	0.497
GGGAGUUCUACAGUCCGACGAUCUAUGAGAAAGGUAAGUCCAUUUUCCCCUUCAGGUCCUCAGUGGAUUACUUAACCACUGCUGUCCCUCGGUCCCUUUUUCCUAAACGGGUUUAGUUCUGUCUUUUUUCUCCUGGAAUUCUCGGGUGCCAA	0.315
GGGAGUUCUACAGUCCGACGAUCUAUAGCCAACACUCUGAUGCUGCUCUUUUUCUUGUAGGACCAACCGUCCCAGUUUGCCUGGGACUUUCUCAUUUUUACAGAGUCCCAAAUCCUAGGAAACUGGAGCAACUUGGAAUUCUCGGGUGCCAA	0.219
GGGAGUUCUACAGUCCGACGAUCCCCAAAUAGGAGACCUGGGGCCUGGCCAGGCCAGGGUUUGGGCCUAAUGGCUUUGACUAAAUUACCCCCAUCCUCCUUGCCCGGAAAAGGGAGAGCUAGAGCCACUCACUUGGAAUUCUCGGGUGCCAA	0.277

Block 2
Target: CCNE2, cyclin fold, Cln2 fusion (human)
Method: yeast growth competition, sequencing
Medium: yeast
Setting: weak parent motif
Reference: not given
Reading: higher = stronger binding
Starting sequence: RB1 docking peptide (human); PKPLKKLRFDIEG
Variant	normalised enrichment score
E12C	0.843
R8W	0.329
K5E	-0.327
L7K	1.27
P3H	-0.389
L7P	1.18
R8Y	0.85
I11M	0.551
P1T	0.839
D10H	1.13
G13P	1.1
I11K	0.467

Block 3
Target: CEP164, C-terminal peptide (human)
Method: DHFR complementation, deep sequencing
Medium: yeast
Setting: single substitutions, model-inferred values
Reference: wild type
Reading: higher = weaker binding
Starting sequence: PDZK1, PDZ domain 2 (human); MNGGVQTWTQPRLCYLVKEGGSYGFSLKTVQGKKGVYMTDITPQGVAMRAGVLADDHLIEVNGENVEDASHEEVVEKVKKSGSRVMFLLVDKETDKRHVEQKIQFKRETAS; partner HNRVKVYRF
Variant	binding free energy change [kcal/mol]
E72N	0.714
V17Y	0.174
R49V	0.279
V5P	-0.051
H71G	-0.646
F105Q	-0.273

Further values, each from its own experiment
Substance	target	test	system	conditions	how to read	endpoint	result
PhoQ, residues 284 288 289 292 302 303 SSYNSA	PhoP, residues 12 14 15 18 19 STWGI (Escherichia coli, UniProt P23836)	Sort-seq, measured: YFP reporter	E. coli	PhoQ-PhoP variant library, with: 10 µM Mg2+	reference: high Mg2+ state, higher = stronger signaling	fold induction	0.378

Repeated from above (block 3):
Variant	binding free energy change [kcal/mol]
F105Q	-0.273
R49V	0.279
E72N	0.714
H71G	-0.646
